Measurements pooled from the literature.
Numbered parts are unrelated; each lists some results of a single study.

Sample 1 — cell line: HEK-293T/ACE2; concentration: concentration not given; time: 16 (unit not given); reference: vehicle
The viability of Cc1ccc(C(=O)c2cc(O)c(O)c([N+](=O)[O-])c2)cc1 is reported as 80.3%.
C[Se]CC[C@H](N)C(=O)O has a viability of 103%.
With O=c1cc[nH]c(=O)[nH]1 the viability was 81.2%.
With CC(=O)O[C@]1(C(C)=O)CC[C@H]2[C@@H]3C=C(C)C4=CC(=O)CC[C@]4(C)[C@H]3CC[C@@]21C the viability was 98.8%.

Sample 2 — technique: RNA Bind-n-Seq; form: RNA; matrix: in vitro; concentration: not given; notes: RNA with constant flanks, ends assumed; reference: input RNA pool; direction: higher = stronger binding
Target: RING finger protein unkempt homolog, zinc fingers 1-6, GST-SBP tag (UNK, Homo sapiens, UniProt Q9C0B0, residues 30-357)
Constant ends, left off below: GGGAGUUCUACAGUCCGACGAUC … CAACAGAGGAUUGAGCAUCA
Construct (chain): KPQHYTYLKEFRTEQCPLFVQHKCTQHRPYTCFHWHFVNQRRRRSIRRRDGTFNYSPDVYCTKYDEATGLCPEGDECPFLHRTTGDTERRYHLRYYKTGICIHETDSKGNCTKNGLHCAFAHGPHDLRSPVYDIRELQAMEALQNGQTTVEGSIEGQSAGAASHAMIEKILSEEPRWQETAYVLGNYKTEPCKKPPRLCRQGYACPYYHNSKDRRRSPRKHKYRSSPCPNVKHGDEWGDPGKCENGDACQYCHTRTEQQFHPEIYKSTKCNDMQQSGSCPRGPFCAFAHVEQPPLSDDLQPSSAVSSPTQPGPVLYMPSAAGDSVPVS
With `AUUCACAGAUUUAUUGUGAACACUCUGAAAGACGGAAGGAGAGUAGUUAUCUUGAUGGAAUCCGAAGUUUUGAAGUCAGCUGAAGCAGUUGGAGUGAAGAUUGGCAAUCCAGUGCCCUAU` the bound/input enrichment was 0.293 ratio.
The bound/input enrichment of `ACAAAGCACUUCAUCUAUUUUUACUUGGGUCAAGUUGCAAUCCUCCUCUUCAAGUCAGGCCCGGUGGCCAUGGUGAAGGUGUCAGUGGCGGCGGCAGCGAUGGCAAGCAGGCGGCGUUGC` is reported as 0.335 ratio.
For `UUCAAAGCCUUACGUCGACAGUUGCCAGUUACACGCACUAAGAUUGAUUGGAACAAGAUCCUCCGCUACAAGAUUGGCAAAGAGAUGCAGAAUGCAUAAGAUGAACAUUGCAUGACCGGA`, the bound/input enrichment was 0.212 ratio.
`UGGCAGAUCUUUAAAACUUCAGCAACCAAAGGCACUGGCCUUGAUGAGGCAAUGGAAUGGUCCGUUGAAACCCUGAAAAGCAGACAGUGAGCCCAUUCACGUCAGCGCCUGUGAGCCAAC` gave a bound/input enrichment of 0.0932 ratio.
`UACUUUACAAUCAUCCACACUGUGGUCUGUGGAUCUUUAAUAUAUAUAUAUAUAAAACAACCGCCGUCAUUUUUAAGUAUAUUCUGAAACCUUUGCAAAUUUUAAGAGAAGAGUCGAAGC` gave a bound/input enrichment of 1.67 ratio.

Sample 3 — technique: universal PBM; form: double-stranded DNA, one strand shown; matrix: in vitro; concentration: not given; direction: higher = stronger binding
Target: Sal-like protein 4, full length isoform B (SALL4, Homo sapiens, UniProt Q9UJQ4-2, residues 1-616)
Notes: 8-mer, flanks averaged, mean of replicates
The E-score of `ACAATTAG` is reported as 0.123.
`CCGGTGCG` gave an E-score of -0.362.
`ATCAACCA` gave an E-score of 0.0213.
The E-score of `CGGACTTA` is reported as -0.0881.
`CGTAGTCC` has an E-score of -0.227.
`CCTGGATA` gave an E-score of -0.0985.
With `CATTAAAC` the E-score was 0.261.
With `TGTTCCAA` the E-score was 0.111.

Sample 4 — observed: enzyme activity; mode: inhibitor; concentration: 20 µM; notes: primary screen
Target: Replicase polyprotein 1ab, main protease (rep, Severe acute respiratory syndrome coronavirus 2, UniProt P0DTD1)
The inhibition of NC(=S)NN=Cc1ccncc1 is reported as 48.4%.
With C[C@@H]1O[C@@H](Oc2c(-c3cc(O)c(O)c(O)c3)oc3cc(O)cc(O)c3c2=O)[C@@H](O)[C@H](O)[C@H]1O the inhibition was 90.6%.
For CN(C)/N=N/c1ccc(C(=O)O)cc1, the inhibition was 71.5%.
CO/N=C(\C(=O)N[C@@H]1C(=O)N2C(C(=O)O)=C(CSC(=O)c3ccco3)CS[C@H]12)c1csc(N)n1 gave an inhibition of 83.8%.

Sample 5 — observed: enzyme activity; mode: inhibitor; concentration: 20 µM
Target: Replicase polyprotein 1ab, polymerase (rep, Severe acute respiratory syndrome coronavirus 2, UniProt P0DTD1)
The inhibition of CN1CCc2c(c3ccccc3n2Cc2ccccc2)C1 is reported as -0.94%.
O=C(NCCCNc1nc(Nc2cccc(NC(=O)N3CCCC3)c2)ncc1I)c1cccs1 gave an inhibition of 6.22%.
C=CCN1CCc2nc(N)sc2CC1 gave an inhibition of 2.22%.
For Cc1cn(C[C@H](N)C(=O)O)c(=O)n(Cc2ccsc2C(=O)O)c1=O, the inhibition was -0.4%.
The inhibition of O=S(=O)(c1ccccc1)c1cnc2c(N3CCNCC3)cccc2c1 is reported as -14.1%.
For Oc1ccc(Cl)cc1Cc1cc(Cl)ccc1O, the inhibition was -1.86%.
The inhibition of COc1cccc(N2CCN(C3=Nc4c(F)cccc4[C@H](CC(=O)O)N3c3cc(C(F)(F)F)ccc3OC)CC2)c1 is reported as -2.4%.
CN1CCN(C(c2ccccc2)c2ccccc2)CC1 gave an inhibition of 1.98%.
Cc1ncc(-c2csc(N=C(N)N)n2)[nH]1 has an inhibition of 3.29%.
CC(C)C[C@@H](N)C(=O)N[C@H]1C(=O)N[C@@H](CC(N)=O)C(=O)N[C@H]2C(=O)N[C@H]3C(=O)N[C@H](C(=O)N[C@H](C(=O)O)c4cc(O)cc(O)c4-c4cc3ccc4O)[C@H](O)c3ccc(c(Cl)c3)Oc3cc2cc(c3O[C@@H]2O[C@H](CO)[C@@H](O)[C@H](O)[C@H]2O[C@H]2C[C@](C)(N)[C@H](O)[C@H](C)O2)Oc2ccc(cc2Cl)[C@H]1O gave an inhibition of 0.38%.
CCOC(CN1CCN(CC(C)C(=O)c2ccccc2)CC1)c1ccccc1 (stereo not drawn) gave an inhibition of 4.12%.
CC(=O)[C@]1(N)Cc2c(O)c3c(c(O)c2[C@@H](O[C@H]2C[C@H](O)[C@H](O)CO2)C1)C(=O)c1ccccc1C3=O has an inhibition of 12.5%.
For CCN1CCN(c2ccc(Nc3cc(N(C)C(=O)Nc4c(Cl)c(OC)cc(OC)c4Cl)ncn3)cc2)CC1, the inhibition was 2.26%.
Ic1cncc(OC[C@@H]2CCN2)c1 has an inhibition of 0.13%.
CNCCC(Oc1ccccc1OC)c1ccccc1 (stereo not drawn) gave an inhibition of 1.61%.
For CNC1CCCN(c2c(F)cc3c(=O)c(C(=O)O)cn(C4CC4)c3c2OC)C1 (stereo not drawn), the inhibition was -3.31%.
With NCCC[C@H](N)CC(=O)N[C@H]1CNC(=O)[C@H]([C@H]2C[C@H](O)NC(N)=N2)NC(=O)/C(=C/NC(N)=O)NC(=O)[C@H](CO)NC(=O)[C@H](CO)NC1=O the inhibition was -3.29%.
C[C@]12CC[C@H]3[C@@H](CCC4=CC(=O)CC[C@@H]43)[C@@H]1CC[C@@H]2O has an inhibition of -2.02%.
Cc1cc(N2CCOCC2)cc2[nH]c(-c3c(NC[C@@H](O)c4cccc(Cl)c4)cc[nH]c3=O)nc12 gave an inhibition of 4.04%.
For Cc1cc(C)c2nc(-c3ccccn3)cc(C(=O)Nc3ccc(S(=O)(=O)Nc4onc(C)c4C)cc3)c2c1, the inhibition was 55.7%.
Nc1c(S(=O)(=O)O)cc(Nc2cccc3ccccc23)c2c1C(=O)c1ccccc1C2=O has an inhibition of 53.2%.
The inhibition of Cc1cccc(/C=N/Nc2cc(N3CCOCC3)nc(OCCc3ccccn3)n2)c1 is reported as -6.14%.
CS(=O)(=O)c1ccc([C@@H](O)[C@@H](CF)NC(=O)C(Cl)Cl)cc1 has an inhibition of -1.42%.
The inhibition of CC(C)[C@@H](CN1CC[C@@](C)(c2cccc(O)c2)[C@@H](C)C1)NC(=O)[C@H]1Cc2ccc(O)cc2CN1 is reported as -0.52%.
For COc1ccc(-c2nc(N3CCOCC3)c3sc(CN(C)c4ncc(C(=O)NO)cn4)cc3n2)cn1, the inhibition was 3.9%.

Sample 6 — technique: protein-binding microarray; form: double-stranded DNA, one strand shown; matrix: in vitro; concentration: 940 nM top; notes: 60-bp whole probe; with: salmon DNA 0.4 mg/ml; reference: random background probes; direction: higher = stronger binding; constant ends, left off below: GCCTAGCAC … GTCTTGATTCGCTTGACGCTGCTG
Target: Interferon regulatory factor 5, full length, phosphomimetic (IRF5, Homo sapiens, UniProt Q13568-2, residues 1-514, S451D/S453D/S456D/S462D)
`GACGGTTTCGACTATCGGGACGTGCTA` — result for “fitted relative affinity”: 8.32 z-score.
`GACGATATCGGGTTTCGAGGCGTGCTA` — result for “fitted relative affinity”: 1.53 z-score.
For `TTAGAGCTGGGGTATCGATTAGTGCTA`, “fitted relative affinity” read 2.65 z-score.
Under “fitted relative affinity”, `TCATGTGTAGGTCTTAAACTGTGCTAG` is recorded as -0.697 z-score.
Under “fitted relative affinity”, `TTGCGTCTGGGTGTTTTCTAGTGCTAG` is recorded as 0.432 z-score.
`GAATCTCTCATGTTACATTTGTGCTAG`: “fitted relative affinity” 1.3 z-score.
`TTACATATCGGGACTGGATTAGTGCTA`: “fitted relative affinity” -0.011 z-score.
For `TTAGGTATCGGGTATCGTTTAGTGCTA`, “fitted relative affinity” read 6.62 z-score.
